Experimental data collected from several papers.
Parts stem from different laboratories: compare values within a part only. “And” joins repeats or separate records; there may be more than shown. Positions count from the first letter of the parent shown.

Block 1
Target: Sal-like protein 4, full length isoform A (SALL4, Homo sapiens, UniProt Q9UJQ4, residues 1-1053)
Sequence of UniProt Q9UJQ4 (whole entry, looked up): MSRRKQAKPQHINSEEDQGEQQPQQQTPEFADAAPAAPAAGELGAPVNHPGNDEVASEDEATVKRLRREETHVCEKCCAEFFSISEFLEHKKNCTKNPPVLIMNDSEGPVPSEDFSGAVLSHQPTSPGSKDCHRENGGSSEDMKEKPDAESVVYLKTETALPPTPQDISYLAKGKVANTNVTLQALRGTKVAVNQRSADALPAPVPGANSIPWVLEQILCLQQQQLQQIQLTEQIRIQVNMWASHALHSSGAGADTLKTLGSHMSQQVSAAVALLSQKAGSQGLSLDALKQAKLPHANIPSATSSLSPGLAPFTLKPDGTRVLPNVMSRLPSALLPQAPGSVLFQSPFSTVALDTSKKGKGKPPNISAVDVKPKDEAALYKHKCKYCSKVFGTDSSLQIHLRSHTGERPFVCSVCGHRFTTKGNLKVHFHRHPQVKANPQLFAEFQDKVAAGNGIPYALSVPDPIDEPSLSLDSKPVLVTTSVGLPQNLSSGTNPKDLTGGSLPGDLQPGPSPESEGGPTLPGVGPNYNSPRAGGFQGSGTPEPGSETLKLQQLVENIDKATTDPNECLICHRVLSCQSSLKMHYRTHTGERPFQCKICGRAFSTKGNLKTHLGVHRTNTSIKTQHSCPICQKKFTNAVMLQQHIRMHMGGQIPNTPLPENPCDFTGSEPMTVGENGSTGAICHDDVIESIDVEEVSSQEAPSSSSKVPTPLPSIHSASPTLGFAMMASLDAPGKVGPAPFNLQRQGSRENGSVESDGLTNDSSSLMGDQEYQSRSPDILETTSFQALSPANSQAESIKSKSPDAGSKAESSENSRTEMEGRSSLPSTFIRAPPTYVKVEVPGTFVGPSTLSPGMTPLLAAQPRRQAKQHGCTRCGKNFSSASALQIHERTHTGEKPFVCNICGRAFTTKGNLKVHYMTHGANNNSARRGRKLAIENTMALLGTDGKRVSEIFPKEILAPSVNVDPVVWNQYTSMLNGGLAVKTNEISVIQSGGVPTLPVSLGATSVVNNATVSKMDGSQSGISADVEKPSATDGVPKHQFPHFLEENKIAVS
Technique: universal PBM
Form: double-stranded DNA, one strand shown
Medium: in vitro
Concentration: 600 nM
Notes: 8-mer, flanks averaged, mean of replicates
Direction: higher = stronger binding
Strand | E-score
GCTCTGCA | -0.117
CGTGCCTA | -0.167
CTTCACCC | -0.0177
TAGGGAAA | 0.108
GCCTAGGC | -0.246
ATGGACTG | -0.00796
CCCGCGGG | -0.389
AAACCTGA | 0.0444
CGTGCGAC | -0.268
GAAGAATA | 0.21
CTTAATTA | 0.317
ACTCCCGA | -0.117

Block 2
Target: CCNE2, cyclin fold, Cln2 fusion (human)
Technique: yeast growth competition, sequencing
Medium: yeast
Notes: strong parent motif
Reference: not given
Direction: higher = stronger binding
Starting sequence: E2F1 docking peptide (human); PPVKRRLDLETDH; partner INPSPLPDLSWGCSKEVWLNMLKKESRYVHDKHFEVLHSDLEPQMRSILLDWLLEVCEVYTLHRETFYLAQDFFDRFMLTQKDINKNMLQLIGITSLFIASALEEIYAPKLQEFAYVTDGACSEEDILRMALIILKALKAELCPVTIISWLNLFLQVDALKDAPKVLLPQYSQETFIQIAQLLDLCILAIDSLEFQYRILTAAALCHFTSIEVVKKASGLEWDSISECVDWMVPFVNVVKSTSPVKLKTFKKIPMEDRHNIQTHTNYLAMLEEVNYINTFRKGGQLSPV
Variant | normalised enrichment score
PPKKRRLDLETDH [V3K] | 1.39
PPVKRRKDLETDH [L7K] | 0.677
PPVKRRSDLETDH [L7S] | -0.455
PKVKRRLDLETDH [P2K] | 1.08
PPVKRRLDLWTDH [E10W] | 1.23
PPVKRRLVLETDH [D8V] | 2.72
PPVKRRLFLETDH [D8F] | 6.85
PPVKRRLDLVTDH [E10V] | 1.33
PPVKRRLDLETDG [H13G] | 1.38
RPVKRRLDLETDH [P1R] | 0.942
PPVKRRLDLEPDH [T11P] | 2.22

Block 3
Target: Phosphate system positive regulatory protein PHO4, full length, GST-tagged (PHO4, Saccharomyces cerevisiae, UniProt P07270, residues 1-312)
Technique: competition protein-binding microarray
Form: double-stranded DNA, one strand shown
Medium: in vitro
Concentration: 2 µM
Notes: whole 60-bp probe, lowest competitor level
Added: Cbf1 competitor, 0.05 µM
Direction: higher = stronger binding
Constant ends, left off below: … GTCTTGATTCGCTTGACGCTGCTG
Construct (chain): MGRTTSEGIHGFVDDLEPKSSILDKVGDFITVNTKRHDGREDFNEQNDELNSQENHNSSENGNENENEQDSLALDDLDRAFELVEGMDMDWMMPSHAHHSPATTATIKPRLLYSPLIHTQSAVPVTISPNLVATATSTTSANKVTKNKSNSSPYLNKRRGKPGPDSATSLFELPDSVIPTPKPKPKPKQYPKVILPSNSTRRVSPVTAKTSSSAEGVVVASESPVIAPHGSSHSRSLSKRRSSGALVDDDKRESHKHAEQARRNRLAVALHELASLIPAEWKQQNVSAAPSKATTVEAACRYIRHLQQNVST
Strand | fluorescence intensity
ATAAAGTGCGTAATGTGCGTGCTAAAAAAGCTCACT | 8840 a.u.
ATGCTTTAGTCTGGACTCGTGATGGTTCAACGATTT | 6990 a.u.
TATAATATCCGTTCGCATGTGAGTTGGCGACCTTTG | 6900 a.u.
AACAAGTATTGAATGCACACGCAAATAGCTTAGGCC | 6220 a.u.
CATACCCAACCTTGCTCAGTGGGTGAAGATATTTGT | 3980 a.u.
TGCGCAACAACTTGTACTGTGGGTGTATGTCTAGAA | 4500 a.u.
GTCTTGTCTCATTGATGAGTGGGTGTCCCCACTTCA | 4690 a.u.
TCAACAATATTGTCCCACGCAGCTATCCTGTCTGTG | 9010 a.u.
GGAGATAGCCTTTTGAGCGTGATGGCTCTTTCTATA | 4590 a.u.
AAAATGGAAAAGTTACACGTGGAAGATACAACAACC | 15900 a.u.
AAAGCGGTAATTTGGAGGGTGGGTGCAGATATCTAT | 4530 a.u.
CTGCTTTAGAATTTGTCCGTGACGGGTACTCTAACA | 4120 a.u.
CTTTCCCGATCTTTTCACGTGGAATTAGCACATTTG | 13400 a.u.

Further values, each from its own experiment
Molecule | target | test | test system | setting | how to read | quantity | result
PhoQ, residues 284 288 289 292 302 303 TASMAF | PhoP, residues 12 14 15 18 19 LWHCS (Escherichia coli, UniProt P23836) | Sort-seq, item: YFP reporter | E. coli | PhoQ-PhoP variant library, added: 10 µM Mg2+ | reference: high Mg2+ state, higher = stronger signaling | fold induction | 7.03 and 15.1

Repeated from above (block 2):
Variant | normalised enrichment score
PPVKRRLDLETDG [H13G] | 1.38
PKVKRRLDLETDH [P2K] | 1.08
RPVKRRLDLETDH [P1R] | 0.942
PPVKRRLDLEPDH [T11P] | 2.22
PPVKRRLFLETDH [D8F] | 6.85
PPVKRRLVLETDH [D8V] | 2.72
